# Measurements pooled from the literature.
# Protocols differ between the studies behind these lines.
# Organism: Klebsiella pneumoniae
SMILES,technique,strain,time,temperature,notes,with,MIC
CC(=O)N[C@@H](CCCCN)C(=O)N[C@@H](CC(C)C)C(=O)N[C@@H](CC(C)C)C(=O)N[C@@H](CCCCN)C(=O)N[C@@H](CC(C)C)C(=O)N[C@@H](CC(C)C)C(=O)N[C@@H](CCCCN)C(=O)N[C@@H](CCCCN)C(=O)N1CCC[C@H]1C(=O)N[C@@H](CC(C)C)C(=O)N[C@@H](CCCCN)C(=O)N[C@@H](CC(C)C)C(=O)N[C@@H](CC(C)C)C(=O)N[C@@H](CCCCN)C(N)=O,broth microdilution,ATCC 700603,18 h,37 °C,compound alone,,> 80 µM
CN(C)[C@@H]1C(O)=C(C(N)=O)C(=O)[C@@]2(O)C(O)=C3C(=O)c4c(O)cccc4[C@@](C)(O)[C@H]3C[C@@H]12,broth microdilution,ATCC 43816 acrAB overexpressor,,,,colistin 0.5 mg/L,4 µg/mL
CC[C@H](C)[C@H](NC(=O)CNC(=O)[C@H](CC(=O)O)NC(=O)[C@H](CCCNC(=N)N)NC(=O)[C@@H](NC(=O)[C@H](CC(N)=O)NC(=O)[C@H](CCCNC(=N)N)NC(=O)CNC(=O)[C@@H](NC(=O)[C@H](CCCCN)NC(=O)[C@H](CCC(=O)O)NC(=O)[C@@H](NC(=O)[C@H](CCCCN)NC(=O)[C@H](CCCCN)NC(=O)[C@H](Cc1ccccc1)NC(=O)[C@@H](NC(=O)[C@H](CCCCN)NC(=O)[C@H](Cc1c[nH]c2ccccc12)NC(=O)[C@@H](N)CCCNC(=N)N)[C@@H](C)CC)[C@@H](C)CC)C(C)C)C(C)C)C(=O)N[C@H](C(=O)N[C@@H](CCCCN)C(=O)N[C@@H](C)C(=O)NCC(=O)N1CCC[C@H]1C(=O)N[C@@H](C)C(=O)N[C@H](C(=O)N[C@@H](C)C(=O)N[C@H](C(=O)N[C@H](C(=O)NCC(=O)N[C@@H](CCC(N)=O)C(=O)N[C@@H](C)C(=O)N[C@@H](C)C(=O)N[C@H](C(=O)N[C@H](C(=O)N[C@H](C(=O)N[C@@H](CCCCN)C(N)=O)C(C)C)C(C)C)[C@@H](C)O)C(C)C)C(C)C)C(C)C)[C@@H](C)CC,,NCCP 15864 carbapenem-resistant,,,,,2 µM
C[C@H]1COc2c(N3CCN(C)CC3)c(F)cc3c(=O)c(C(=O)O)cn1c23,,ATCC 700603 ESBL SHV-18,,,,,0.5 µg/mL
CC[C@H](C)CCCCC(=O)N[C@@H](CCN)C(=O)N[C@H](C(=O)N[C@@H](CCN)C(=O)N[C@H]1CCNC(=O)[C@H]([C@@H](C)O)NC(=O)[C@H](CCN)NC(=O)[C@H](CCN)NC(=O)[C@H](CC(C)C)NC(=O)[C@@H](Cc2ccccc2)NC(=O)[C@H](CCN)NC1=O)[C@@H](C)O,broth microdilution,NCTC 5055,24 h,37 °C,,,4 µg/mL
CC(=O)N[C@@H](CCCCN)C(=O)N[C@@H](C)C(=O)N[C@@H](CC(C)C)C(=O)N[C@@H](CC(C)C)C(=O)N[C@@H](CCCCN)C(=O)N[C@@H](CC(C)C)C(=O)N[C@@H](CC(C)C)C(=O)N[C@@H](CCCCN)C(=O)N[C@@H](CCCCN)C(=O)N1CCC[C@H]1C(=O)N[C@@H](CC(C)C)C(=O)N[C@@H](CCCCN)C(=O)N[C@@H](CC(C)C)C(=O)N[C@@H](CC(C)C)C(=O)N[C@@H](CCCCN)C(N)=O,broth microdilution,ATCC 700603,18 h,37 °C,compound alone,,> 80 µM
CCCc1nc(N(C)C)c2c(c1O)C(=O)C1=C(O)[C@]3(O)C(=O)C(C(N)=O)=C(O)[C@@H](N(C)C)[C@@H]3C[C@@H]1C2.Cl.Cl,,tet(A)-carrying,,,,,> 32 µg/mL
CC[C@H](C)[C@H](NC(=O)[C@H](C)NC(=O)[C@H](CCCCN)NC(=O)[C@H](CC(C)C)NC(=O)[C@H](C)NC(=O)[C@@H](NC(=O)[C@H](Cc1c[nH]cn1)NC(=O)[C@H](CC(C)C)NC(=O)[C@@H](NC(=O)[C@@H](NC(=O)[C@H](CCCCN)NC(=O)[C@H](C)NC(=O)[C@H](C)NC(=O)[C@H](CO)NC(=O)[C@H](CCCCN)NC(=O)[C@H](Cc1ccccc1)NC(=O)[C@@H](NC(=O)[C@H](CCCCN)NC(=O)[C@H](CC(C)C)NC(=O)[C@H](Cc1ccccc1)NC(=O)[C@H](CO)NC(=O)[C@H](CCCCN)NC(=O)[C@H](Cc1c[nH]c2ccccc12)NC(=O)[C@H](CCCCN)NC(C)=O)[C@@H](C)O)[C@@H](C)O)C(C)C)[C@@H](C)O)C(=O)N[C@@H](CO)C(=O)N[C@@H](CO)C(N)=O,,ESBL ATCC 700603,,,range,,8 µg/mL
C[C@H]1COc2c(N3CCN(C)CC3)c(F)cc3c(=O)c(C(=O)O)cn1c23,agar dilution,"09-20, NDM-1",,,,,16 µg/mL
CC(C)C[C@H](NC(=O)[C@@H](NC(=O)[C@H](CCCNC(=N)N)NC(=O)[C@H](CCC(N)=O)NC(=O)[C@H](Cc1ccccc1)NC(=O)[C@H](Cc1ccc(O)cc1)NC(=O)[C@H](CC(N)=O)NC(=O)[C@H](Cc1c[nH]c2ccccc12)NC(=O)[C@@H](NC(=O)[C@H](CCCNC(=N)N)NC(=O)[C@H](CCCCN)NC(=O)[C@@H](N)Cc1ccccc1)C(C)C)C(C)C)C(=O)N[C@H](C(=O)N[C@@H](CCCCN)C(=O)N[C@@H](CCCCN)C(N)=O)C(C)C,broth dilution,ATCC 700603,,,,,25 µM

# For quick reference, copied from above:
SMILES,technique,strain,time,temperature,notes,with,MIC
CC[C@H](C)CCCCC(=O)N[C@@H](CCN)C(=O)N[C@H](C(=O)N[C@@H](CCN)C(=O)N[C@H]1CCNC(=O)[C@H]([C@@H](C)O)NC(=O)[C@H](CCN)NC(=O)[C@H](CCN)NC(=O)[C@H](CC(C)C)NC(=O)[C@@H](Cc2ccccc2)NC(=O)[C@H](CCN)NC1=O)[C@@H](C)O,broth microdilution,NCTC 5055,24 h,37 °C,,,4 µg/mL
